# Experimental data of several laboratories.
# Protocols differ between the studies behind these lines. pIC50: −log10 of the molar value.
# Cell line: UO-31
Compound,test,setting,how to read,measurement,result
CC(=O)OC[C@H]1O[C@@H](Sc2sc(C(=O)c3ccc(Br)cc3)c(N)c2-c2nc3ccccc3s2)[C@H](OC(C)=O)[C@@H](OC(C)=O)[C@@H]1OC(C)=O,SRB,"10 µM, 48 h",reference: untreated,growth,73.6%
CC(Cc1ccc(Cl)cc1)=C(c1ccc(Cl)cc1)c1ccc(OCCN(C)C)cc1,cell growth or viability,,,GI50,4270 nM
COc1ccc(C2=Nn3c(NN=C4C(=O)N(Cc5ccccc5)c5ccc(Cl)cc54)nnc3SC2)cc1,"cell growth or viability, SRB",10 µM,,inhibition,23%
CC/C=C\C/C=C\C/C=C\C/C=C\C/C=C\C/C=C\CCC(=O)Nc1ccn(C2OC(CO)C(O)C2(F)F)c(=O)n1 (centres unmarked),NCI60 screen,,,TGI,12 µM
COc1cc(CNC(=O)C[C@H](C)CCC=C(C)C)ccc1OCc1cn(-c2ccc(C#N)cc2)nn1,SRB,"10 µM, 48 h",,growth percent,50.9%
CC(=C(c1ccc(O)cc1)c1ccc(Cl)cc1)c1ccc(Cl)cc1,cell growth or viability,,,GI50,650 nM
COc1cc(CNC(=O)C[C@H](C)CCC=C(C)C)ccc1OCc1cn(-c2ccc(Br)cc2)nn1,SRB,"10 µM, 48 h",,growth percent,62.9%
O=C([O][Ti+2][O]C(=O)c1ccc([P+]([Au-][Cl])(c2ccccc2)c2ccccc2)cc1)c1ccc([P+]([Au-][Cl])(c2ccccc2)c2ccccc2)cc1.c1cc[cH-]c1.c1cc[cH-]c1,"cell viability, XTT",24 h,,pIC50,5.17
COc1cc(CNC(=O)C[C@H](C)CCC=C(C)C)ccc1OCc1cn(-c2ccc(Cl)cc2Cl)nn1,SRB,"10 µM, 48 h",,growth percent,60.5%
CC(=O)OC[C@H]1O[C@@H](Sc2sc(C(=O)c3ccc(C)cc3)c(N)c2-c2nc3ccccc3s2)[C@H](OC(C)=O)[C@@H](OC(C)=O)[C@H]1OC(C)=O,SRB,"10 µM, 48 h",reference: untreated,growth,57.6%
O=C(O)c1ccc([P+]([Au-][Cl])(c2ccccc2)c2ccccc2)cc1,"cell viability, XTT",24 h,,pIC50,4.42

# Repeated from above:
Compound,test,setting,how to read,measurement,result
COc1cc(CNC(=O)C[C@H](C)CCC=C(C)C)ccc1OCc1cn(-c2ccc(Br)cc2)nn1,SRB,"10 µM, 48 h",,growth percent,62.9%
